Assay results from different studies.
Protocols differ between the studies behind these lines. In brackets after ≈: the same amount, converted by molar mass.
OPRM1: Mu-type opioid receptor (OPRM1, Homo sapiens, UniProt P35372)
Sequence of UniProt P35372 (whole entry, looked up): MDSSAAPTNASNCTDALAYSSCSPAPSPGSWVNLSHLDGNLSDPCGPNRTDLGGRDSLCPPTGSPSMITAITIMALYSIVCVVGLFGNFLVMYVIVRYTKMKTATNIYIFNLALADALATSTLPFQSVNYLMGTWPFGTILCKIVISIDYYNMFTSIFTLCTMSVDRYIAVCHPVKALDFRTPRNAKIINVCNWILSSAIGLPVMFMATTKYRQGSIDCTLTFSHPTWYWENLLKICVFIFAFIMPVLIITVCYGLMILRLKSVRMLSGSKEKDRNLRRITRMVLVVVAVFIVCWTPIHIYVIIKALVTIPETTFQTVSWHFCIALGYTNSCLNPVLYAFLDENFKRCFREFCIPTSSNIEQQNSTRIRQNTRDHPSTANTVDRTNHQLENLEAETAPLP
Potassium/sodium hyperpolarization-activated cyclic nucleotide-gated channel 1: Potassium/sodium hyperpolarization-activated cyclic nucleotide-gated channel 1 (Homo sapiens, UniProt O60741)
Sequence of UniProt O60741 (whole entry, looked up): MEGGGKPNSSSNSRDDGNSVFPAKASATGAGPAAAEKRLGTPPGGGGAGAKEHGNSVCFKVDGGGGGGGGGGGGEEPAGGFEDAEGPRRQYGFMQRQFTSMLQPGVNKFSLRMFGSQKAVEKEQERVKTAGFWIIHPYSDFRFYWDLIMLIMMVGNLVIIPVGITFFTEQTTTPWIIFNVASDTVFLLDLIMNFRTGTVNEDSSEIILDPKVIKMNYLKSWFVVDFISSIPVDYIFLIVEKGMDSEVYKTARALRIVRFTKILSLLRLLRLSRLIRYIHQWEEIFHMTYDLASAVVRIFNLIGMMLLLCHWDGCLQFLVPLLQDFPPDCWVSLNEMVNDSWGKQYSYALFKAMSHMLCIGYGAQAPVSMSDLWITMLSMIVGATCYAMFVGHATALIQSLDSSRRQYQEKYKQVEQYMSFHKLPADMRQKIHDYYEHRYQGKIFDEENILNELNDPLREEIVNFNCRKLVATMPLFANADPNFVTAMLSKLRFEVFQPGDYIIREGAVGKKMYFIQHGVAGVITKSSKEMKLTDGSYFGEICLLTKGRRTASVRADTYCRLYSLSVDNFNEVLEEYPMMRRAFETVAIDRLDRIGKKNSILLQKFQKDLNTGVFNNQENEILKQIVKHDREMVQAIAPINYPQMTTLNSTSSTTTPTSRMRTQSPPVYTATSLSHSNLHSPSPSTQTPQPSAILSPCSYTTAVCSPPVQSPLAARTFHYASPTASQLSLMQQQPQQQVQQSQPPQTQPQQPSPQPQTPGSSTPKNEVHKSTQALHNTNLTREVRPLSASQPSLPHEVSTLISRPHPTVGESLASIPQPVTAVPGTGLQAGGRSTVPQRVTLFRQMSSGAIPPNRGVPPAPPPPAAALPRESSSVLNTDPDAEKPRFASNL
4'-phosphopantetheinyl transferase PptT: 4'-phosphopantetheinyl transferase PptT (Mycobacterium tuberculosis, UniProt O33336)
Sequence of UniProt O33336 (whole entry, looked up): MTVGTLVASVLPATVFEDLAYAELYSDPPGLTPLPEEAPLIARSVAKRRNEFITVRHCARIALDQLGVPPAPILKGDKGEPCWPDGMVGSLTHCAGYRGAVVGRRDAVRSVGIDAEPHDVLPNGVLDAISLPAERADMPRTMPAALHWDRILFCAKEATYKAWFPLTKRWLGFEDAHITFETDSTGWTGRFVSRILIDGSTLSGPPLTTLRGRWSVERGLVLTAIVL
Sequence of UniProt P21127 (whole entry, looked up): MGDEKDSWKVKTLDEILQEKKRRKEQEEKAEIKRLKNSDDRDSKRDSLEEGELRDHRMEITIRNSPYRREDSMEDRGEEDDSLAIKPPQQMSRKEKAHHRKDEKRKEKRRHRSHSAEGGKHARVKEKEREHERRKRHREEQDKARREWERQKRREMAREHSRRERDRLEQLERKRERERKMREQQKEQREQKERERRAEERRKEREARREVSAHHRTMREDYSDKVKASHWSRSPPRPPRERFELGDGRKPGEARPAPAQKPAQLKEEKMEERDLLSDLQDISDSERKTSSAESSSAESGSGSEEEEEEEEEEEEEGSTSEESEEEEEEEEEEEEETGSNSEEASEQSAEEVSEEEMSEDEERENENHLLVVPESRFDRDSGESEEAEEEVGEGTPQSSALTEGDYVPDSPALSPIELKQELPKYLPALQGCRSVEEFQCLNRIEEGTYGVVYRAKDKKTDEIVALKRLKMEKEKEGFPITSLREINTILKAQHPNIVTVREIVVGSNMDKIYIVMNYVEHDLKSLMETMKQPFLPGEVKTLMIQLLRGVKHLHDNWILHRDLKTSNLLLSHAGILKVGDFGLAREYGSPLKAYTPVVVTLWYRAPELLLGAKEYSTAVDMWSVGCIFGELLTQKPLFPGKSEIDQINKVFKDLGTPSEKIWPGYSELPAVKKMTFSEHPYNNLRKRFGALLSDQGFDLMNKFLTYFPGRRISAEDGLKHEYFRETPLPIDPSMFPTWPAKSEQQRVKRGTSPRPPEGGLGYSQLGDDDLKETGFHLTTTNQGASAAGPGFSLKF
Sequence of UniProt P34972 (whole entry, looked up): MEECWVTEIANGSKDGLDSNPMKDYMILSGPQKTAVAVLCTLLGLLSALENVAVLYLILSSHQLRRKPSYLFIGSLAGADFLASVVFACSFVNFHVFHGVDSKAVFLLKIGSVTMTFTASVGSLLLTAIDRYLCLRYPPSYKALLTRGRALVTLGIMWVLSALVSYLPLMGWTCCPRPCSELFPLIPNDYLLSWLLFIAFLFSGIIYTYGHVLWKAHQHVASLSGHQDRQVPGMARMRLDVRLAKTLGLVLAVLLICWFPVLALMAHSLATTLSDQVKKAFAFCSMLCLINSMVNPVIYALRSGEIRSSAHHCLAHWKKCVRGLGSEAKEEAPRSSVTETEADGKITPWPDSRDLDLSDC
Sequence of UniProt P20309 (whole entry, looked up): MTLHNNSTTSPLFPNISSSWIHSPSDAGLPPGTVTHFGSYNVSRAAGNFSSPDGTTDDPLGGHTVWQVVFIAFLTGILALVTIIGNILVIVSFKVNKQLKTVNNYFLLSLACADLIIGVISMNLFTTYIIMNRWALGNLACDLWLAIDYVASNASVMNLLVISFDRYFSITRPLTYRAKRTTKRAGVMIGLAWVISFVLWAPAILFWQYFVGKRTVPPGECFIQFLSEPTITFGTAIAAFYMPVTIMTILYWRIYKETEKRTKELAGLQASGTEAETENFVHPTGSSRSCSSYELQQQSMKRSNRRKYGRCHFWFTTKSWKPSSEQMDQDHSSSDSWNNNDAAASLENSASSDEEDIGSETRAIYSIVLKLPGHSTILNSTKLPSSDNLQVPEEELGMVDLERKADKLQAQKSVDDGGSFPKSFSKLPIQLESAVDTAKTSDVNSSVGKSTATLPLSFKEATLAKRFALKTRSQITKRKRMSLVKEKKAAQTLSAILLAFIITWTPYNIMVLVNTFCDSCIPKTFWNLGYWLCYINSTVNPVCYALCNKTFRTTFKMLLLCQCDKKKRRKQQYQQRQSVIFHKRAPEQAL
Sequence of UniProt P08913 (whole entry, looked up): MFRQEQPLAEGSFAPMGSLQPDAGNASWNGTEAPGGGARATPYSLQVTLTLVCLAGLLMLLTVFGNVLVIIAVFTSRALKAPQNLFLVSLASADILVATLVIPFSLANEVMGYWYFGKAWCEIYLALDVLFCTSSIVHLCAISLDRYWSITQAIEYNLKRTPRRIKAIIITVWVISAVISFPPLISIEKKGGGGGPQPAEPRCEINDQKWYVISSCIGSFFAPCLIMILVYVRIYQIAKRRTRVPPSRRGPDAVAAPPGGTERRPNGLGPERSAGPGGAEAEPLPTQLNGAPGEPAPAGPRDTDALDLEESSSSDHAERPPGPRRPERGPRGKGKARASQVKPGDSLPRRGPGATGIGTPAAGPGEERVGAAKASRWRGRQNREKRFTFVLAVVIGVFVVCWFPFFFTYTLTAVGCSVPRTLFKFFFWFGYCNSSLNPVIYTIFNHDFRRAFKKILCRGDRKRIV
Sequence of UniProt P78356 (whole entry, looked up): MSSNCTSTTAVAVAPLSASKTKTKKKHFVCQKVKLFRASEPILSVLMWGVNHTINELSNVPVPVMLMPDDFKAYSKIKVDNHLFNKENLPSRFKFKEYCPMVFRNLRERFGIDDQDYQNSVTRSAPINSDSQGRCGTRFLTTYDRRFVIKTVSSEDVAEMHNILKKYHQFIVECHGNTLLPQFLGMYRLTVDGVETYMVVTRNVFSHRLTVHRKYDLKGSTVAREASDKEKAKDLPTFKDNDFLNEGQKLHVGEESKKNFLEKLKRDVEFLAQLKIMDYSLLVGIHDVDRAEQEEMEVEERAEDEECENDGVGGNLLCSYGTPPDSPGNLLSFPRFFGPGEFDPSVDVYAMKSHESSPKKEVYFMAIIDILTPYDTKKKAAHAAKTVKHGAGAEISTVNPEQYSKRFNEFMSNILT
Sequence of UniProt P43403 (whole entry, looked up): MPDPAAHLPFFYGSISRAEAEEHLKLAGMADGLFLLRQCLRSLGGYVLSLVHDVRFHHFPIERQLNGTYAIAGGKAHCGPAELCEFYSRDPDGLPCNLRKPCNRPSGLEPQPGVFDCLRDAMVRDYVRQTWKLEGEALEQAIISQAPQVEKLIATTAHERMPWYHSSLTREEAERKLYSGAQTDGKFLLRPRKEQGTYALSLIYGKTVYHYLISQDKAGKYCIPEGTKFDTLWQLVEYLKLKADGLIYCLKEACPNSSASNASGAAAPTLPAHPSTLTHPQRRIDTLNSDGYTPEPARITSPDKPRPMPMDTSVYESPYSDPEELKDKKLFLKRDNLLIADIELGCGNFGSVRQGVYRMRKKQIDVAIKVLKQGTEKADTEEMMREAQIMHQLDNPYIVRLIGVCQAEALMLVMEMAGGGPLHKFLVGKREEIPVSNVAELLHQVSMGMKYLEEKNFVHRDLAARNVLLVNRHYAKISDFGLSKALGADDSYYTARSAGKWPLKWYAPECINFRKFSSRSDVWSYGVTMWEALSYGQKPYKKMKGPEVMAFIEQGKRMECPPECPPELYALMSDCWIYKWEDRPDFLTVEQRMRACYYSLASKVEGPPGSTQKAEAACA

| SMILES | tested on | assay | test system | conditions | endpoint | result |
| --- | --- | --- | --- | --- | --- | --- |
| Nc1ncc(-c2nc(N3CCOCC3)nc(N3CCOCC3)n2)c(C(F)F)n1 | PIP4K2B (Homo sapiens, UniProt P78356) | binding, competition with immobilised ligand | – | 10 µM | remaining binding | 100% |
| CC(C)CC(=O)OC[C@H]1O[C@@](C#N)(c2ccc3c(N)ncnn23)[C@H](O)[C@@H]1O | CHRM3 (Homo sapiens, UniProt P20309) | cell-free assay | – | 20 µM | inhibition | 10% |
| CCCCCc1ccccc1C/C=C\C/C=C\C/C=C\CCCC(=O)OC(CO)CO | CNR2 (Homo sapiens, UniProt P34972) | β-arrestin recruitment, agonist | – | – | Emax | 8% |
| [2H]c1c([2H])c([C@]2([2H])CCCN2C(=O)C(C)(C)Oc2ccc3cn[nH]c3c2)c([2H])c([2H])c1C([2H])([2H])[2H] | CDK11B (Homo sapiens, UniProt P21127) | binding, competition with immobilised ligand | – | 1 µM | remaining binding | 76% |
| COc1ncccc1-c1cnn2ccc(N3CCN(C(=O)OC(C)C)CC3)nc12 | STK36 (Homo sapiens, UniProt Q9NRP7) | binding, competition with immobilised ligand | – | 1 µM | remaining binding | 91% |
| CC(C)[C@@H]1NC(=O)[C@@H](CCCCN)NC(=O)[C@H](CCCN)NC(=O)[C@@H](CC(=O)O)NC(=O)[C@H](C)NC(=O)[C@H](Cc2c[nH]c3ccccc23)NC(=O)[C@@H](Cc2ccccc2)NC1=O | Balamuthia mandrillaris | parasite growth, ATP luminescence | – | – | IC50 | > 16 µg/mL |
| Cc1nn(C)cc1-c1nc2c(N3CCN(Cc4ccc(Cl)cc4)CC3)c(Cl)cnc2[nH]1 | PIK3CA (Homo sapiens, UniProt P42336) | binding, competition with immobilised ligand | – | 1 µM | remaining binding | 100% |
| Oc1cccc(N2[C@@H]3CC[C@H]2CNC3)c1 | OPRM1 | cAMP, agonist | OPRM1 | – | Emax | 105% |
| CN1CCC[C@H]1c1cccnc1 | ADRB3 (Homo sapiens, UniProt P13945) | ligand displacement | – | 50 µM | inhibition | 2.19% |
| CC(C)[C@@H]1NC(=O)[C@@H](CCCCN)NC(=O)[C@H]([C@@H](C)O)NC(=O)[C@@H](CCCCN)NC(=O)[C@H](Cc2c[nH]c3ccccc23)NC(=O)[C@@H](C)NC(=O)[C@@H](C(C)C)NC(=O)[C@@H](C)NC(=O)[C@H](Cc2c[nH]c3ccccc23)NC(=O)[C@@H](Cc2c[nH]c3ccccc23)NC1=O | Balamuthia mandrillaris | parasite growth, ATP luminescence | – | – | IC90 | 13.7 µg/mL (≈ 10.9 µM) |
| Oc1cccc(N2[C@@H]3CC[C@H]2CN(CCCc2ccccc2)C3)c1 | OPRM1 | cAMP, agonist | OPRM1 | – | Emax | 98.9% |
| c1cncc([C@@H]2CCCN2)c1 | ADRA2A (Homo sapiens, UniProt P08913) | ligand displacement | – | 50 µM | inhibition | 4.8% |
| C#Cc1n[nH]c2c(-c3cn([C@@H](C)c4ccccn4)c(=O)[nH]c3=O)cc(F)cc12 | ZAP70 (Homo sapiens, UniProt P43403) | enzyme activity, inhibitor | – | 0.1 µM | inhibition | -0.4% |
| CCCN1C[C@H](CSC)C[C@@H]2c3cccc4[nH]cc(c34)C[C@H]21 | Potassium/sodium hyperpolarization-activated cyclic nucleotide-gated channel 1 | ion current, inhibitor | – | 30 µM | inhibition | 9.8% |
| CCN(CC)CCCC[C@H](NC(=O)[C@H](CC(C)C)NC(=O)[C@H](C)NC(=O)[C@H](Cc1ccccc1)NC(=O)c1ccc(C(C)(C)C)cc1)C(=O)N[C@@H](CO)C(=O)OC | PHIP, BD2 (Homo sapiens, UniProt Q8WWQ0) | thermal stability, DSF | – | 25 µM | ΔTm | 0.64 °C |
| CSc1nc2ccc(Cl)cc2c(=O)n1Cc1ccc[n+](C)c1 | 4'-phosphopantetheinyl transferase PptT | enzyme activity, inhibitor, FP | – | – | IC50 | > 100 µM |
| Cc1nnc(SCC2=C(C(=O)O)N3C(=O)[C@@H](NC(=O)Cn4cnnn4)[C@H]3SC2)s1 | Potassium/sodium hyperpolarization-activated cyclic nucleotide-gated channel 1 | ion current, inhibitor | – | 10 µM | inhibition | -1.4% |
| N.N.[Cl][Pt][Cl] | DOHH-2 | cell growth or viability, ATP luminescence | – | 10 µM, 72 h | inhibition | 100% |
| COCC(=O)OCc1cc2[nH]c(=S)n(Cc3cccnc3)c(=O)c2cc1Cl | 4'-phosphopantetheinyl transferase PptT | enzyme activity, inhibitor, FP | – | – | IC50 | 6.86 µM |

For quick reference, copied from above:
| SMILES | tested on | assay | test system | conditions | endpoint | result |
| --- | --- | --- | --- | --- | --- | --- |
| CCCN1C[C@H](CSC)C[C@@H]2c3cccc4[nH]cc(c34)C[C@H]21 | Potassium/sodium hyperpolarization-activated cyclic nucleotide-gated channel 1 | ion current, inhibitor | – | 30 µM | inhibition | 9.8% |
| Nc1ncc(-c2nc(N3CCOCC3)nc(N3CCOCC3)n2)c(C(F)F)n1 | PIP4K2B (Homo sapiens, UniProt P78356) | binding, competition with immobilised ligand | – | 10 µM | remaining binding | 100% |
| C#Cc1n[nH]c2c(-c3cn([C@@H](C)c4ccccn4)c(=O)[nH]c3=O)cc(F)cc12 | ZAP70 (Homo sapiens, UniProt P43403) | enzyme activity, inhibitor | – | 0.1 µM | inhibition | -0.4% |
